# Published values gathered from unrelated publications.
# A part holds a random share of what one study measured.

# Block 1
# Target: RNA binding protein fox-1 homolog 2, RRM domain, GST-SBP tag (RBFOX2, Homo sapiens, UniProt O43251-10, residues 100-194)
# Technique: RNA Bind-n-Seq
# Molecule type: RNA
# Matrix: in vitro
# Tested at: 365 nM
# Setting: natural RNA segment, single round, ends assumed
# Relative to: no-protein control
# Reading: higher = stronger binding
# Constant ends, left off below: GGGAGUUCUACAGUCCGACGAUC … UGGAAUUCUCGGGUGCCAA
# Target sequence (chain): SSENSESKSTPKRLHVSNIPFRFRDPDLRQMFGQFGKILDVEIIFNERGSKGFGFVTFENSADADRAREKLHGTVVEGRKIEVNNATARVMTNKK
Oligonucleotide,RBNS enrichment (R)
GGGACCAUGCUGCCCCCACUCCCGCUUUUGUUGGGGCUCUAAGUUCUGGAAGGUGUGUGCACAGAGGGUGCUCAUGGGACUCGCAUGCAGCUCUCAGCACUGGGUGGGAG,15.3
AUCACAGGUUCAGAGAUCUCUUAGGGAAGUUGCUCAAAAUCCUGUUUGUAGUUAAGGUGUCUGGGGUAACAGAUAACAUGGGCCUGAGGGAGCCCUCAGGUCUAUAGGAA,0.322
GACCCACGCUCUGCCGAGAUACUGGACGGGAGGAAGGAUUUUUCCUAGACUGCGGAUUGGCGUGACAAAGCAAUGGCUGUGUCAGCUGGGCCUUCAUCCAGGAACAGACC,0.337
CCCCAAGCAGUGGUGCCACUCUUCCAAGCCUCUUGGUGCACAGUAAACCUAUUGCUUGAAGCUUUGAACAGCUGAGAAGUGGUCUGGAGAGGCAGAAGCUGAAGGUUCUA,0.299
GUUUACUACAUUUUUUAUUGAAGGUCAGCCAUGCUUUCUGUAUUAUAUUGCAUAUGAAAUUGUUUACAAAAGAAACACUAACUCAUACUUCUCUUUAUUGGUUGCAAGUG,0.453
GAAUAAUGGAGAUUUUGUGUCUGCAAAAUUCCUGAGAUCAUUGAAAAAGUAACAAGCUGUUCCUUGUUUCUGAUACAUAAAAUUAUUUUAAGCAUUUUAUCAAUCAUUAA,0.931
GCCCAACCUGGGCAAGCAUGAGAAGUUCUCGGAGGUGCUUAAGCGGCUGCGACUUCAGAAGCGAGGCACAGGCGGUGUGGACACGGCUGCGGUGGGCGGGGUCUUCGACG,9.79
GUGCGCUCUUUUGAUACAUACAUUUACCUGCUGUUUUUCUCAAAUAAAAGUUGCAAGCUACUGCUCACCACCGUCUGACUCCAGAGUUAUUAUGGUGGGCUAGGGAUGGG,0.415

# Block 2
# Target: TAR DNA-binding protein 43, full length, His tag (TARDBP, Homo sapiens, UniProt Q13148, residues 1-414)
# Technique: RNA Bind-n-Seq
# Molecule type: RNA
# Matrix: in vitro
# Tested at: 20 nM
# Setting: 6-mer, flanks averaged, single round
# With: 150 mM KCl
# Relative to: input library
# Reading: higher = stronger binding
Oligonucleotide,6-mer enrichment (R)
GGGUAU,1.83
GGCCUG,1.56
CGCCGC,0.829
GGGAGA,3.85
UUACAA,0.636
AGAAGG,1.74
CACCCU,0.673
AUAAGG,1.04
AAUUAA,0.663
CUAUGG,0.903
UCAUAA,0.612
ACCGGU,0.801
UUGGUU,0.721
AAUUAC,0.626
CUCACA,0.571
CUCGCG,0.834
GGCGGA,3.53
AUAGUU,0.598
CGAGUU,0.726
CACGCA,0.719
AGAUGC,0.8
UACGAA,0.7
UGUCUC,0.605
CCAAGA,0.708
UUCCAU,0.561

# Block 3
# Target: Cyclic AMP-responsive element-binding protein 1 (CREB1, Homo sapiens, UniProt P16220, residues 1-327, full length assumed)
# Sequence of UniProt P16220 (whole entry, looked up): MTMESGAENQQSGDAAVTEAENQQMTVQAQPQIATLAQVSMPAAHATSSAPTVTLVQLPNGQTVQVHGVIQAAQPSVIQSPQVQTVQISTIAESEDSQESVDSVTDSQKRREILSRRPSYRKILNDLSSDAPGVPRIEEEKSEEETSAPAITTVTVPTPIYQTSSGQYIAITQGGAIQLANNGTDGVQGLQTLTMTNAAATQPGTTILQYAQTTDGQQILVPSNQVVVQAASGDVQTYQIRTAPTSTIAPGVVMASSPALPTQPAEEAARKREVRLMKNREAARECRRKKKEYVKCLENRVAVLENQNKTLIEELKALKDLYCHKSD
# Technique: protein-binding microarray
# Molecule type: double-stranded DNA, one strand shown
# Matrix: in vitro
# Tested at: not given
# Setting: k-mer, scored over probes, only values ≥0.25
# Reading: higher = stronger binding
Oligonucleotide,E-score
ATACGAT,0.266
ATCATTA,0.312
CGTCAGA,0.369
AATATGG,0.256
ATGTAAT,0.261
ATTTAAC,0.262
ATGTGAC,0.272
TACGTAA,0.469
GTAATCA,0.252
CTATGAC,0.352
CATGACG,0.477
ATCATAC,0.292
GTATCAC,0.262
ACGACGT,0.323
ACGTTGA,0.306
GACGCAA,0.316
CAATATG,0.28
CCTGACG,0.268
TAAATGA,0.262
GTTATGA,0.293
CAATATA,0.259
GTAATTA,0.375
GACGTAC,0.342
GCGTGAC,0.283
ATAAAAA,0.29

# Block 4
# Target: Histone acetyltransferase KAT6A, both winged helices, GST fusion (KAT6A, Homo sapiens, UniProt Q92794, residues 1-181)
# Technique: protein binding microarray
# Molecule type: double-stranded DNA, one strand shown
# Matrix: in vitro
# Tested at: not given
# Setting: 8-mer, flanks averaged, mean of 2 arrays, mostly near background
# Relative to: not given
# Reading: higher = stronger binding
# Construct (chain): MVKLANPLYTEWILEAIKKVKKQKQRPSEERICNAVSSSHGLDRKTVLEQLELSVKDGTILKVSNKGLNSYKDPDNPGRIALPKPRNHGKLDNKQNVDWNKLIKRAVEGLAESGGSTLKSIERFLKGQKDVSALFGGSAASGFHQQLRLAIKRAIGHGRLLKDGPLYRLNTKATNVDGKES
Oligonucleotide,E-score
GGATACGA,-0.055
TGTATGAA,0.0666
GCACTACA,-0.126
CAAGGAAC,0.0331
GAACTGGA,0.0387
AAGTGGTA,-0.223
ACGGGATG,0.2
AGAGAGTA,-0.121
CCACGTGC,-0.0184
GAGAGCAA,-0.172
CGCACTTC,0.121
CGACGGCC,0.322
ACATAGTA,-0.0601
CGTATGGC,0.0309
CGTTAGAG,0.00474
ACGGTGGG,0.0619
AATACTAC,-0.0277
ACTATCCC,-0.0072
AAAATTGG,-0.234
ATTAGATC,-0.0325
GACGACAC,0.103

# For quick reference, copied from above (block 4):
Oligonucleotide,E-score
GGATACGA,-0.055
GCACTACA,-0.126
AAAATTGG,-0.234
CAAGGAAC,0.0331
CCACGTGC,-0.0184
CGTATGGC,0.0309
ACGGGATG,0.2
